Assay results gathered from unrelated publications.
Each line is one published result; not all experiments were run side by side. ± gives the spread as reported.
CA6: Carbonic anhydrase 6 (CA6, Homo sapiens, UniProt P23280)
BIRC2 BIR3: Baculoviral IAP repeat-containing protein 2, BIR3 (BIRC2, Homo sapiens, UniProt Q13490)

COc1ccc(Cn2c(=O)n(O)c(=O)c3ccccc32)cc1  Ki (Flap endonuclease 1 (Homo sapiens, UniProt P39748); inhibitor; together with: double-flap substrate DF1): 0.026 ± 0.002 µM
Cc1cc(N)nc(C[C@@H]2CNC[C@@H]2OCCCCCc2cccc(F)c2)c1  Ki (Nitric oxide synthase 3 (NOS3, Bos taurus, UniProt P29473); enzyme activity, inhibitor; pH 7.4): 33.8 µM
COCCOc1cc2ncnc(Nc3cccc(-c4cn(Cc5ccc(C(=O)Nc6ccc(S(N)(=O)=O)cc6)cc5)nn4)c3)c2cc1OCCOC  Ki (CA6; enzyme activity, inhibitor, stopped-flow): 2.6 µM
O=C(Nc1cccc(-c2nn[nH]n2)c1)c1cc(-c2ccoc2)cc(C(F)(F)F)c1  Ki (Beta-lactamase CTX-M-27 (Escherichia coli, UniProt Q840M4); enzyme activity, inhibitor, absorbance; pH 7): 3.02 µM
CC(=O)N[C@@H](CC(=O)O)C(=O)N[C@H](C(=O)N1CCC[C@H]1C(=O)N[C@H](C=O)CC(=O)O)C(C)C  Ki (Caspase-7 (CASP7, Homo sapiens, UniProt P55210); enzyme activity, inhibitor, fluorescence; pH 7): 0.0182 µM
CCC[C@H]1CC[C@H](c2ccc(NC(=S)NC[C@@H]3[C@@H](O)[C@@H](O)[C@H]4[C@H](O)CCCN43)cc2)CC1  Ki (Alpha-mannosidase 2 (Homo sapiens, UniProt Q16706, Y354A); enzyme activity, inhibitor; together with: Man-α-4MU substrate): 1.92 µM
CN(C)c1ccc2c(c1)C(=O)N(C(C(=O)O)C(C)(C)S)C2=O (centres unmarked)  Ki (Metallo-beta-lactamase VIM-2 (VIM-2, Escherichia coli, UniProt Q5U7L7); enzyme activity, inhibitor; Km 8 µM, together with: chromacef 25 µM): > 3 µM
CN[C@@H](C)C(=O)N[C@H]1CN(C(=O)Cc2ccccc2)CC[C@H]2CC[C@@H](C(=O)NCc3ccccc3Br)N2C1=O  Ki (BIRC2 BIR3; ligand displacement, FP): 0.0229 µM
COCCOc1cc2ncnc(Nc3cccc(-c4cn(Cc5ccc(C(=O)NCCc6ccc(S(N)(=O)=O)cc6)cc5)nn4)c3)c2cc1OCCOC  Ki (CA6; enzyme activity, inhibitor, stopped-flow): 0.0281 µM
COc1cc(CNC(=O)C[C@H](C)CCC=C(C)C)ccc1OCc1cn(-c2ccc(F)cc2)nn1  growth percent (HOP-62; SRB; 10 µM, 48 h): 68%
O=c1ccn([C@@H]2O[C@H](COP(=O)(O)OP(=O)(O)O[C@H]3OC[C@@H](O)[C@H](O)[C@H]3O)[C@@H](O)[C@H]2O)c(=O)[nH]1  Ki (UDP-glucose 6-dehydrogenase (UGDH, Homo sapiens, UniProt O60701); enzyme activity, inhibitor, absorbance): 0.42 µM
COc1cc(CNC(=O)C[C@H](C)CCC=C(C)C)ccc1OCc1cn(-c2ccc(Cl)c(Cl)c2)nn1  growth percent (HCC 2998; SRB; 10 µM, 48 h): 93.5%
Brc1ccccc1-c1nnc(CSc2nnnn2-c2ccccc2)o1  Ki (Kappa-type opioid receptor (OPRK1, Homo sapiens, UniProt P41145); ligand displacement, radioligand): 2.05 µM
CN[C@@H](C)C(=O)N[C@H]1CN(C(=O)Cc2ccccc2)CC[C@H]2CC[C@@H](C(=O)NCc3ccc(Cl)cc3)N2C1=O  Ki (Baculoviral IAP repeat-containing protein 3, BIR3 (BIRC3, Homo sapiens, UniProt Q13489); ligand displacement, FP): 0.003 µM
CCCCCCCC[C@@H]1[C@H](O)[C@@H](O)[C@H](O)[C@H]2CS/C(=N/CCCC)N12  Ki (Alpha-galactosidase (Coffea arabica, UniProt Q42656); enzyme activity, competitive inhibitor; green coffee bean enzyme, optimal pH, together with: p-nitrophenyl glycopyranoside): > 2000 µM
CN[C@@H](C)C(=O)N[C@H]1CN(C(=O)Cc2ccccc2)CC[C@H]2CC[C@@H](C(=O)NCc3ccccc3Cl)N2C1=O  Ki (BIRC2 BIR3; ligand displacement, FP): 0.0208 µM
O=C1c2c(O)cccc2[C@@H]([C@@H]2O[C@H](CO)[C@@H](O)[C@H](O)[C@H]2O)c2cc(CO)cc(O)c21  Ki (Indoleamine 2,3-dioxygenase 1 (IDO1, Homo sapiens, UniProt P14902); uncompetitive inhibitor, Lineweaver-Burk plot): 70.2 µM

A few entries again:
COCCOc1cc2ncnc(Nc3cccc(-c4cn(Cc5ccc(C(=O)Nc6ccc(S(N)(=O)=O)cc6)cc5)nn4)c3)c2cc1OCCOC  Ki (CA6; enzyme activity, inhibitor, stopped-flow): 2.6 µM
O=C(Nc1cccc(-c2nn[nH]n2)c1)c1cc(-c2ccoc2)cc(C(F)(F)F)c1  Ki (Beta-lactamase CTX-M-27 (Escherichia coli, UniProt Q840M4); enzyme activity, inhibitor, absorbance; pH 7): 3.02 µM
